Results collected from several papers.
Every numbered part comes from another study and shows a few of its results, in no order. Positions count from the first letter of the parent shown.

Set 1 — method: competition protein-binding microarray; form: double-stranded DNA, one strand shown; sample: in vitro; concentration: 2 µM; added: Pho4 competitor, 0.05 µM; reading: higher = stronger binding
Target: Centromere-binding protein 1, full length, His-tagged (CBF1, Saccharomyces cerevisiae, UniProt P17106, residues 1-351)
Sequence of UniProt P17106 (whole entry, looked up): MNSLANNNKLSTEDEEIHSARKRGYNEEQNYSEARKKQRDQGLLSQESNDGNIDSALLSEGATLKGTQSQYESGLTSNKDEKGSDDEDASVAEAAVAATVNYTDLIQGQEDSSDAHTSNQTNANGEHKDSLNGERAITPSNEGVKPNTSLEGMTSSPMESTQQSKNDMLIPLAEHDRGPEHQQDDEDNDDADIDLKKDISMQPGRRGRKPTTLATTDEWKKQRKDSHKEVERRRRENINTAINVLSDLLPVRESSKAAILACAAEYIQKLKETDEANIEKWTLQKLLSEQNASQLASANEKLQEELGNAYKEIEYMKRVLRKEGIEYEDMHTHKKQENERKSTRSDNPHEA
Notes: whole 60-bp probe, lowest competitor level
Sequence	fluorescence intensity [a.u.]
CTTCTGTAAATTTGTGGTGTGGGTGGACGCGCCCCGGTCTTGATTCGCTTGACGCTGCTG	86.8
CGTATGGTCTGCGACCTTGGGACATACAGTAAGTAGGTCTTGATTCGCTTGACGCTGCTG	61.8
CTAACGAAGGTTTGCTTGGTGGGTGACAAGCCAAGTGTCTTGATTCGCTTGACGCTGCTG	63.8
AAAGCGGTAATTTGTCACGGGACTTCACATATCTATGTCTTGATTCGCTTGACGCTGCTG	1650
CTAACGAAGGTTTGTCACTCAACTTACAAGCCAAGTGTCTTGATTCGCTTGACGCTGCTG	74.8
CTAACGAAGGTTTGGTATGTGGGTGACAAGCCAAGTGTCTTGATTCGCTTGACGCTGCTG	81.2
TATATTAGGTCGAGTCACGGGTGGTGTCCCTCAAGCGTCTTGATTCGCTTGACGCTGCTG	266
ACAAATGGTAACTGGCACGTTAATTGGTTTAACATTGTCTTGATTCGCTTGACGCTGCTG	102
ATTACCTTGGCCCTTCACGGGCGGGTTCCTCGGAATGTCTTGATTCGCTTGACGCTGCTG	49.6
GAACGGATGCCCGAGCCCGTGCCAGCGCCCGAGCCTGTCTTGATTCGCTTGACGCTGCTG	54.3
TGCGCAACAACTTGAACCGTGGGTGTATGTCTAGAAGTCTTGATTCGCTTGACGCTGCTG	64.8
CTTCTGTAAATTTGTTCTGTGGGTGGACGCGCCCCGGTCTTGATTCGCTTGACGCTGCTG	81.4
CGGGGTTAAGTTTTTCACGTGAGTTGCTTGCAGCAGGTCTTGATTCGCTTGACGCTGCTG	923
CCAGTGATTGCGTCCCACGCTCGTTACTGGTTCCTGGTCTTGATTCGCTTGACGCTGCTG	60.3
TCACAAGAATCAATTGTATTTTTCTAGACTCGCTAAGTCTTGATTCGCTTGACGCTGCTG	89.6
TGCGCAACAACTTTCCACGTGTTTTTATGTCTAGAAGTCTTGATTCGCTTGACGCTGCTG	1000
CCAGTCTCTGTCTTGCGCGTGCAAATAAGTGCCGGCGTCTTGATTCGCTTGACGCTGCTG	103
CAATCCGCAATTTAGCACGTGCCAGATCCCACCGACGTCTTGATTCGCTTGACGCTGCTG	3060
AAAGCGGTAATTTCCCACGTGTTTTCACATATCTATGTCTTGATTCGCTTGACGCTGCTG	1010
ACTGCCGTTGTTCATACCGTGACTCGTAGTGGCAGTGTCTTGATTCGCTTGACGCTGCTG	176
ATTACATGGTGCTTGCTCGGGCTTTTTGGGATAAGAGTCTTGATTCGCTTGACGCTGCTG	68.3
AAATTACTAAGTTGCCAGGTGGGTGACGCCGTATGAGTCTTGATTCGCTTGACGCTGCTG	60.9

Set 2 — target: CCND1, cyclin fold, Cln2 fusion (human); method: yeast growth competition, sequencing; sample: yeast; notes: weak parent motif; relative to: not given; reading: higher = stronger binding
Starting sequence: GMNC docking peptide (human); KNAKRNLSSEFAN
Substitution	normalised enrichment score
KNAKRNLVSEFAN [S8V]	0.46
KNWKRNLSSEFAN [A3W]	0.402
KNAKRPLSSEFAN [N6P]	0.266
KNAYRNLSSEFAN [K4Y]	0.533
KNAKQNLSSEFAN [R5Q]	0.05
KNAKRNLSSEFMN [A12M]	0.347
KNAKRNLASEFAN [S8A]	0.548
KNAKRNLSSDFAN [E10D]	0.0182
KNAKRNLSTEFAN [S9T]	0.859
KNAKRNLSSMFAN [E10M]	0.349
KNATRNLSSEFAN [K4T]	0.0725
KNAKRNKSSEFAN [L7K]	0.169
KNAKTNLSSEFAN [R5T]	-0.145
KNAKRNLSAEFAN [S9A]	0.742
KNAKRGLSSEFAN [N6G]	0.36
KNAIRNLSSEFAN [K4I]	1.28
KNAKRNLESEFAN [S8E]	0.491
KNQKRNLSSEFAN [A3Q]	0.313

Set 3 — method: RNA Bind-n-Seq; form: RNA; sample: in vitro; concentration: 200 nM; notes: whole 134-nt RNA, ends assumed; added: 150 mM LiCl; relative to: input library; reading: higher = stronger binding; library: 7-deaza-guanosine replaces G
Target: Ras GTPase-activating protein-binding protein 1, full length (G3BP1, Homo sapiens, UniProt Q13283)
Sequence of UniProt Q13283 (whole entry, looked up): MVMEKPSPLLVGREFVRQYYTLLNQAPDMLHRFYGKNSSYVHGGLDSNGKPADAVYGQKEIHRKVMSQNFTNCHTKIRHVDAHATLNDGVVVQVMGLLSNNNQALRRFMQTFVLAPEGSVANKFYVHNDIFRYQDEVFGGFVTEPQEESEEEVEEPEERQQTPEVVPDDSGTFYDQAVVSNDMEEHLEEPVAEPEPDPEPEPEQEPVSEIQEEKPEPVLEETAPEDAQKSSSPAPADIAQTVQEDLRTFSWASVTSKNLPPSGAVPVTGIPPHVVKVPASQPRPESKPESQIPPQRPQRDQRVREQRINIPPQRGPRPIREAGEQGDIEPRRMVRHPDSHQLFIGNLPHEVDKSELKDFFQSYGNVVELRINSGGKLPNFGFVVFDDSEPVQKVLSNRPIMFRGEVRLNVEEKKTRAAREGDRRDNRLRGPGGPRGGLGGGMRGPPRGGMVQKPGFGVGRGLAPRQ
Sequence	log2 enrichment
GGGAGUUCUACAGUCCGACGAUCUCCUCAAGUCCUGUGCUACACAUCGUAUGUACCGAAUCGGUGGGUGGGGUGGAAAGUAUUAUGUUACGCCGUUCGGAUCUGCACUUCCAGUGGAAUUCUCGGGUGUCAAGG	1.03
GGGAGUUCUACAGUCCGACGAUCUCCUGUGCUACACAUCGUAUGUACCGAAUCGGGGAAAAAGGGGAAAAAGGAAAAAGGGGAAAGUAUUAUGUUACGCCGUUCGGAUCUGCAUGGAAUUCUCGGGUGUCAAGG	-0.33
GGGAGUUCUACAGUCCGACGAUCAGUCCUGUGCUACACAUCGUAUGUACCGAAUCGGGGAGGGGUUUGGGGUUUUUGGGGAAAGUAUUAUGUUACGCCGUUCGGAUCUGCACUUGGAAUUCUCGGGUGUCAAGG	-0.153
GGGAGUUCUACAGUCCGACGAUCUCCUCAAGUCCUGUGCUACACAUCGUAUGUACCGAAUCGGUGGAGGAAAGGAAAGUAUUAUGUUACGCCGUUCGGAUCUGCACUUCCAGCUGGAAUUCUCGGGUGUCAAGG	-0.0454
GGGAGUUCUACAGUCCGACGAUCAGUCCUGUGCUACACAUCGUAUGUACCGAAUCAAACCCAAACCCAAACCCCCCCAAAAAAGUAUUAUGUUACGCCGUUCGGAUCUGCACUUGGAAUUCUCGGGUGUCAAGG	0.0786
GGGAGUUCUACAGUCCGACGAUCAAGUCCUGUGCUACACAUCGUAUGUACCGAAUCGGGAAAGGGAAAAAGGGAAAGGGAAAGUAUUAUGUUACGCCGUUCGGAUCUGCACUUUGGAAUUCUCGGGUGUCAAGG	-0.0694
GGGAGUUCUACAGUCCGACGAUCAAGUCCUGUGCUACACAUCGUAUGUACCGAAUCGGGAAAAAGGGAAAAAGGGAGGGAAAGUAUUAUGUUACGCCGUUCGGAUCUGCACUUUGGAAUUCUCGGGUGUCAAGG	0.262
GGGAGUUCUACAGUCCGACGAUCUCCUGUGCUACACAUCGUAUGUACCGAAUCGGGGUUUUUUGGUUUUUUGGUUUUUUGGGGAAAGUAUUAUGUUACGCCGUUCGGAUCUGCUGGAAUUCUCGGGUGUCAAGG	-0.22
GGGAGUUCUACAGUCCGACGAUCUUUGAUGACAGUCUGCAGGAGCUGCCUGGUGAAGUACCUGGAGGAGAACAACACCUGCCCCACCUGCAGGAUUGUGAUCCACCAGAGCCAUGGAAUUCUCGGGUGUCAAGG	-1.35
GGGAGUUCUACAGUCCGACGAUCGUCCUGUGCUACACAUCGUAUGUACCGAAUCGGGGUUUUUUUGGGGUGGGGUUUGGGGAAAGUAUUAUGUUACGCCGUUCGGAUCUGCACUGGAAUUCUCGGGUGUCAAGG	0.105
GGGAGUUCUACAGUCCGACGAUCUGGCCCUGGUGGCAUGCGGGGAGGAAGAGGUGGCCUCAUGGAUCGUGGUGGUCCCGGUGGAAUGUUCAGAGGUGGCCGUGGUGGGGACAGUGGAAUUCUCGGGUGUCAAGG	-0.0673

Mixed results
Substance	target	assay	test system	setting	scale	endpoint	value
PhoQ, residues 284 288 289 292 302 303 GTAMQF	PhoP, residues 12 14 15 18 19 LYHSL (Escherichia coli, UniProt P23836)	Sort-seq, item: YFP reporter	E. coli	PhoQ-PhoP variant library, added: 10 µM Mg2+	relative to: high Mg2+ state, higher = stronger signaling	fold induction	11.1

For quick reference, copied from above (set 1):
Sequence	fluorescence intensity [a.u.]
ACAAATGGTAACTGGCACGTTAATTGGTTTAACATTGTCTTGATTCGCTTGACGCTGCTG	102
ATTACCTTGGCCCTTCACGGGCGGGTTCCTCGGAATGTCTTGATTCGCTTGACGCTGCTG	49.6
GAACGGATGCCCGAGCCCGTGCCAGCGCCCGAGCCTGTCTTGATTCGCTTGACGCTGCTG	54.3
TGCGCAACAACTTGAACCGTGGGTGTATGTCTAGAAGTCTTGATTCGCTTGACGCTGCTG	64.8
